Assay results from different studies.
Each line is one published result; not all experiments were run side by side. “And” joins repeats or separate records; there may be more than shown. Numbers after ± are the reported error.

Cc1cc(C)c(CNC(=O)c2cc(Cl)c3c(c2C)O[C@@](C)([C@H]2CC[C@H](N(C)C)CC2)O3)c(=O)[nH]1  AUC(0-t) (female CB17 SCID mice, HT-1376 xenograft, plasma; 75 mg/kg, day 1): 7600 ng·h/mL
Cc1c(C(=O)O)ccc2c3n(nc12)[C@@H]1[C@H](C3)N(CC2CC2)[C@@]2(C(=O)Nc3cc(Cl)ccc32)[C@H]1c1cccc(Cl)c1F  AUC(0-t) (female BALB/c nude mice, SJSA-1 xenograft, plasma; oral, 1 mg/kg twice daily): 31.2 µM·h and 20.1 µM·h and 23.3 µM·h and 21.2 µM·h
CC1(C)CC[C@]2(C(=O)O)CC[C@]3(C)C(=CC[C@@H]4[C@@]5(C)C[C@@H](O)[C@H](OC(=O)/C=C/c6ccc(O)cc6)C(C)(C)[C@@H]5CC[C@]43C)[C@@H]2C1 (relative stereo)  AUC(0-t) (C57BL/6 mice, plasma; intraperitoneal, 85 µmol/kg single dose): 89.7 µM·h
CN1CCC[C@H](CN2c3ccccc3Sc3ccccc32)C1.Cl  AUC(0-t) (ICR mice, fasted female, eye; oral, 16 mg/kg): 1320 ng·h/mL
CCc1nc(C(N)=O)c(Nc2ccc(N3CCC(N4CCN(C)CC4)CC3)c(OC)c2)nc1NC1CCOCC1  AUC(0-t) (female FVB mice, OCT1/2 knockout, plasma; oral, 10 mg/kg, single dose): 6300 ± 611 ng·h/mL
CCOc1ccc(N(C)S(=O)(=O)c2cc(Cl)sc2C(=O)Nc2cc(Cl)cc(C(=O)O)c2)cc1OC  AUC(0-t) (male C57BL/6 mice, brain; intraperitoneal, 10 mg/kg): 22.8 ng·h/g
O=[N+]([O-])c1ccc(-c2ccc(O)cc2)c2cccnc12  AUC(0-t) (ICR mice male, plasma; intravenous, 1 mg/kg): 140 ng·h/mL
Cc1ncccc1-c1cnc(NCc2c(F)ccc3c2CCO3)n2cnnc12  AUC(0-t) (female CB17 SCID mice, HT-1376 xenograft, plasma; 75 mg/kg, day 1): 13100 ng·h/mL
CCN1CCN(Cc2ccc(NC(=O)c3ccc(C)c(NC(=O)c4cncc(-c5cccs5)c4)c3)cc2C(F)(F)F)CC1  AUC(0-t) (C57BL/6 mice, epithelial lining fluid; intraperitoneal, 30 mg/kg): 8930 ng·h/mL
Cc1cc(NC(=O)c2cccc3cc(-c4cccc5[nH]nc(N)c45)ccc23)ccc1F  AUC(0-t) (CD-1 mice, brain; oral, 10 mg/kg): 5010 ng·h/g
